Measurements of several laboratories.
Numbered parts are unrelated; each lists some results of a single study. Substitutions count along the parent as printed.

Sample 1
Target: Centromere-binding protein 1, full length, His-tagged (CBF1, Saccharomyces cerevisiae, UniProt P17106, residues 1-351)
UniProt P17106, sequence (whole entry, looked up): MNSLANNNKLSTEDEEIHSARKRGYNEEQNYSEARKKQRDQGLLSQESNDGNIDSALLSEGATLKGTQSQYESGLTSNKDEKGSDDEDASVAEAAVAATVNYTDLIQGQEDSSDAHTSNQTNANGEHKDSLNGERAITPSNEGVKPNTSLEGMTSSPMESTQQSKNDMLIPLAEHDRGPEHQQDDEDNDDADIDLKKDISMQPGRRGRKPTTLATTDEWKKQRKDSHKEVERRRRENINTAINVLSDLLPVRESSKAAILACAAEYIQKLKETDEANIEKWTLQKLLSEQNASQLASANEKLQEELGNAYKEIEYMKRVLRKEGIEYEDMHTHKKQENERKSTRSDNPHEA
Method: competition protein-binding microarray
Form: double-stranded DNA, one strand shown
Sample: in vitro
Tested at: 2 µM
Notes: whole 60-bp probe, lowest competitor level
Together with: Pho4 competitor, 0.05 µM
Reading: higher = stronger binding
Measurement: fluorescence intensity
All sequences stand within: … GTCTTGATTCGCTTGACGCTGCTG
GAGGCTTGGCAGTTCCACGTGGAAGACCTGACGGAG: 435 a.u.
CTAACGAAGGTTTGTGTGGTGGGTGACAAGCCAAGT: 75.5 a.u.
TCAAATATTCCATCGCACGTGTAGTACCCAATGGTT: 968 a.u.
CTTTCCCGATCTTGTCACTCCACTTTAGCACATTTG: 76.2 a.u.
CGTCCTAGTGATTTTCACGTGGGCTCCATGAGGAAG: 876 a.u.
TGCGCAACAACTTGGGCTGTGGGTGTATGTCTAGAA: 59.8 a.u.
CGTCCTAGTGATTGCCAGGTGGGTGCCATGAGGAAG: 71.3 a.u.
GTTTACTATTTATGCAACGTGGTAATAAGACTGTCT: 137 a.u.

Sample 2
Target: JDP2, bZIP domain (human)
Method: DHFR protein complementation
Sample: yeast
Notes: single substitutions, most at no-binding floor
Reference: wild-type JUN-FOS pair
Reading: higher = stronger binding
Measurement: binding fitness
Parent: JUN, bZIP domain (human); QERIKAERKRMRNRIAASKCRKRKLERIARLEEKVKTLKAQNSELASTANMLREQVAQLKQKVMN; partner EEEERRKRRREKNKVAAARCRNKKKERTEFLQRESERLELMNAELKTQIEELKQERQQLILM
L31K: 0.107 natural log
L52I: 0.238 natural log
I28P: 0.291 natural log
L45Y: 0.216 natural log
A29V: 0.0587 natural log
T37I: 0.314 natural log
I28F: 0.207 natural log
E54A: 0.195 natural log

Sample 3
Target: Runt-related transcription factor 3, Runt domain (RUNX3, Homo sapiens, UniProt Q13761, residues 53-186)
UniProt Q13761, sequence (53-186, looked up): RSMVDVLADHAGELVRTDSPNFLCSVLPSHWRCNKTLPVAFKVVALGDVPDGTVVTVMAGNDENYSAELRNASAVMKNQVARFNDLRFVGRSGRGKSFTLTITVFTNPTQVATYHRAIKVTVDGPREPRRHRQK
Method: protein-binding microarray
Form: hairpin DNA
Sample: in vitro
Tested at: not given
Notes: whole hairpin DNA, median over replicate spots
Reference: not given
Reading: higher = stronger binding
Measurement: median fluorescence
CTCAGTTCTGTGTGCTGGACTCCTGTCCAGCACACAGAACTGAGACACTC: 3880 a.u.
CTCAGTCCTGTGGGCTGGACTCCTGTCCAGCCCACAGGACTGAGACACTC: 4380 a.u.
CTCAGTTCGGTGGGCTGGACTCCTGTCCAGCCCACCGAACTGAGACACTC (5mC at 8 36): 4380 a.u.
CTCAGTTCCGTGGGCTGGACTCCTGTCCAGCCCACGGAACTGAGACACTC: 4450 a.u.
GAGGCCCACCCGCAACAGCCTCCTGGCTGTTGCGGGTGGGCCTCACACTC: 5910 a.u.
GAGGCCTGTTGCGGTCGGCCTCCTGGCCGACCGCAACAGGCCTCACACTC (5mC at 16 28): 9440 a.u.
GAGGCCTGTCGCGGTTGGCCTCCTGGCCAACCGCGACAGGCCTCACACTC (5mC at 5): 6520 a.u.
GAGGCCTGTTGTGCGTGGCCTCCTGGCCACGCACAACAGGCCTCACACTC (5mC at 14): 4670 a.u.

Other studies, line by line
DLEKYNLAF  z-score of log IC50 (HLA class I histocompatibility antigen, A alpha chain, allele A*80:01 (Homo sapiens, UniProt P04439); peptide-MHC binding; peptide; direction not given): 0.38

For quick reference, copied from above (sample 3):
CTCAGTTCTGTGTGCTGGACTCCTGTCCAGCACACAGAACTGAGACACTC: 3880 a.u.
CTCAGTCCTGTGGGCTGGACTCCTGTCCAGCCCACAGGACTGAGACACTC: 4380 a.u.
